Measurements gathered from unrelated publications.
Values joined by “and” are separate records of one study, mostly repeats; a detail may differ. Numbers after ± are the reported error.

For `CCCCCCCCN(C)C`, “intrinsic clearance in vivo” read 201 mL/h/g liver (Oncorhynchus mykiss; liver S9 substrate depletion; pooled rainbow trout liver S9; pH 7.8, tested individually).
For `NC(=O)c1ncn([C@@H]2O[C@H](CO)[C@@H](O)[C@H]2O)n1`, the SI90 was 1.6 (Zika virus; Vero 76, MR-766; unit not given; relative to: CC50 over EC90).
`Oc1ccc(/C=C/c2cc(O)cc(O)c2)cc1` — result for “total spots per fly”: 0.67 Spots per Fly and 0.6 Spots per Fly and 0.57 Spots per Fly (Drosophila melanogaster; wing spot test; standard cross, wings; oral, concentration not given).
The selectivity index of `COc1cc2nccc(Oc3ccc(NC(=O)Nc4ccc(CC5CCNCC5)cc4)c(F)c3)c2cc1OC` is reported as 27 fold (Plasmodium falciparum; HepG2, 3D7; relative to: HepG2 CC50 over P. falciparum EC50).
The EC50 of `Clc1ccc(C(c2ccc(Cl)cc2)n2cc[n+](CC(OCc3ccc(Cl)cc3Cl)c3ccc(Cl)cc3Cl)c2)cc1` (stereo not shown) is reported as 0.55 ± 0.03 µM (Trypanosoma brucei; cell viability, flow cytometry, PI; bloodstream form; 24 h).
`Nc1ncnc2c([C@@H]3N[C@H](CO)[C@@H](O)[C@H]3O)c[nH]c12` has an SI90 of 11.6 (Zika virus; Vero 76, MR-766; unit not given; relative to: CC50 over EC90).
For `O=C1NC2(CCCc3ccccc32)C(=O)N1Cc1c(F)cccc1Cl` (stereo not shown), the EC50 was greater than 25 µM (Trypanosoma brucei; viability, flow cytometry; bloodstream form; 24 h).
Under “intrinsic clearance in vivo”, `CCCCCCCCCCCCCN` is recorded as 17 mL/h/g liver (Oncorhynchus mykiss; liver S9 substrate depletion; pooled rainbow trout liver S9; pH 7.8, tested individually).
`O=C(CCc1c(-c2ccc(F)cc2)[nH]c2ccc(F)cc12)N1CCN(c2ccncc2)CC1` gave an EC50 of 5.2 ± 3.2 µM (Trypanosoma brucei; viability, flow cytometry; bloodstream form; 24 h).
`CCCCCCCCCCCCCCCCNC` — result for “intrinsic clearance in vitro”: 0.215 mL/h/mg S9 protein (Oncorhynchus mykiss; liver S9 substrate depletion; rainbow trout liver S9; tested individually).
For `COc1cc2nccc(Oc3ccc(NC(=O)Nc4ccc(CC5CCNCC5)c(C(F)(F)F)c4)c(F)c3)c2cc1OC`, the selectivity index was 33 fold (Plasmodium falciparum; HepG2, 3D7; relative to: HepG2 CC50 over P. falciparum EC50).
`Cc1nc(C(=O)N2CCCC2c2ccc(F)c(F)c2)c(=O)[nH]c1C` (stereo not shown) gave an EC50 of greater than 25 µM (Trypanosoma brucei; viability, flow cytometry; bloodstream form; 24 h).
For `CCCCCCCCCCCC(=O)OCCN`, “intrinsic clearance in vivo” read 357 mL/h/g liver (Oncorhynchus mykiss; liver S9 substrate depletion; pooled rainbow trout liver S9; pH 7.8, tested individually).

Some of these lines once more:
For `NC(=O)c1ncn([C@@H]2O[C@H](CO)[C@@H](O)[C@H]2O)n1`, the SI90 was 1.6 (Zika virus; Vero 76, MR-766; unit not given; relative to: CC50 over EC90).
`Oc1ccc(/C=C/c2cc(O)cc(O)c2)cc1` — result for “total spots per fly”: 0.67 Spots per Fly and 0.6 Spots per Fly and 0.57 Spots per Fly (Drosophila melanogaster; wing spot test; standard cross, wings; oral, concentration not given).
